# Results from different studies.
Compound,tested on,assay,system,setting,how to read,endpoint,result
CC[C@H](C)[C@H](NC(=O)C[C@H](NC(=O)CN1CCN2CCN(CC1)CC(=O)[O][Al]([18F])[O]C(=O)C2)C(=O)O)C(=O)N[C@H]1CCc2cccc3c2N(C1=O)[C@H](C(=O)NCc1cn[nH]n1)C3,MC-38 tumour model,,"host not given, heart","30 min, tumour-bearing",,tracer uptake,0.62 %ID/g
Cc1ncsc1-c1ccc(C(C)NC(=O)C2CC(O)CN2C(=O)C(NC(=O)CCCCCCCCCCN2CCCC(Nc3ncc(Cl)c(Nc4ccccc4S(=O)(=O)C(C)C)n3)C2)C(C)(C)C)cc1 (stereo not drawn),22Rv1,"RNA-seq, item: MMS22L",,concentration not given,relative to: DMSO,log2 fold change,-1.01
COc1cccc(OC)c1-c1cc(C(=O)NC2(C(=O)O)C3CC4CC(C3)CC2C4)nn1-c1ccc(C(=O)N(C)CCCN(C)CCCN(C)C(=O)[C@H](CCCCNC(=O)[C@H](CC(C)C)NC(=O)C2OC2C(=O)O)NC(=O)CN2CCN(CC(=O)[O-])CCN(CC(=O)[O-])CCN(CC(=O)[O-])CC2)cc1C(C)C.[177Lu+3] (mixture of isomers),HT-29 tumour model,,"host not given, bone","4 h, tumour-bearing",,tracer uptake,1.1 %ID/g
C=CC(=O)Nc1cccc(Cn2ncc3cnc(Nc4cnn(CCOC)c4)nc32)c1,CDK2 human,"binding, KINOMEscan",,100 nM,lower = stronger binding,percent of control,85%
COC1CN([C@H]2CC[C@H]([C@@]3(C)Oc4c(Cl)cc(C(=O)NCc5c(SC)cc(C)[nH]c5=O)c(C)c4O3)CC2)C1,,"RNA-seq, item: PDCD1LG2","human, whole blood","dose not given, 24 h",relative to: pretreatment baseline,log2 fold change,1.01
COc1cccc(OC)c1-c1cc(C(=O)NC2(C(=O)O)C3CC4CC(C3)CC2C4)nn1-c1ccc(C(=O)N(C)CCCN(C)C(=O)[C@H](CCCCNC(=O)[C@H](CC(C)C)NC(=O)C2OC2C(=O)O)NC(=O)CN2CCN(CC(=O)[O-])CCN(CC(=O)[O-])CCN(CC(=O)[O-])CC2)cc1C(C)C.[177Lu+3] (mixture of isomers),HT-29 tumour model,,"host not given, stomach","7 days, tumour-bearing",,tracer uptake,0.039 %ID/g
N#C[C@@H]1CC(F)(F)CN1C(=O)CNC(=O)c1ccnc2c(NC(=O)[C@H](CCCCNC(=O)CCOCCOCCOCCOCCOCCOCCNC(=O)CN3CCN(CC(=O)[O-])CCN(CC(=O)[O-])CCN(CC(=O)[O-])CC3)NC(=O)CCCc3ccc(I)cc3)cccc12.[177Lu+3],U-87 MG tumour model,,"host not given, tumour","1 h, tumour-bearing",,tracer uptake,42.5 %ID/g
N#C[C@@H]1CCCN1C(=O)CNC(=O)c1ccnc2ccc(OCCCN3CCN(C(=O)CCc4ccc5c(c4)CN4CCN(Cc6cc(CCC(=O)O)ccc6O)CC(=O)[O][Al-]([18F])([O]C(=O)C4)[O]5)CC3)cc12 (stereo partly drawn),U-87 MG tumour model,,"host not given, intestine","2 h, tumour-bearing",,tracer uptake,11.7 %ID/g
N#C[C@@H]1CC(F)(F)CN1C(=O)CNC(=O)c1ccnc2c(NC(=O)CCOCCOCCOCCOCCOCCOCCNC(=O)[C@H](CCCCNC(=O)CN3CCN(CC(=O)[O-])CCN(CC(=O)[O-])CCN(CC(=O)[O-])CC3)NC(=O)CCCc3ccc(I)cc3)cccc12.[177Lu+3],U-87 MG tumour model,,"host not given, bone","48 h, tumour-bearing",,tracer uptake,0.32 %ID/g
COc1cccc(OC)c1-c1cc(C(=O)NC2(C(=O)O)C3CC4CC(C3)CC2C4)nn1-c1ccc(C(=O)N(C)CCOCCN(C)C(=O)[C@H](CCCCNC(=O)[C@H](CC(C)C)NC(=O)C2OC2C(=O)O)NC(=O)CN2CCN(CC(=O)[O-])CCN(CC(=O)[O-])CCN(CC(=O)[O-])CC2)cc1C(C)C.[177Lu+3] (mixture of isomers),HT-29 tumour model,,"host not given, bone","72 h, tumour-bearing",,tracer uptake,1 %ID/g
CC(C)Cc1ccc(C(C)C(=O)N[C@@H](CCCCNC(=O)CCOCCOCCOCCOCCOCCOCCNC(=O)CN2CCN(CC(=O)[O-])CCN(CC(=O)[O-])CCN(CC(=O)[O-])CC2)C(=O)Nc2cccc3c(C(=O)NCC(=O)N4CC(F)(F)C[C@H]4C#N)ccnc23)cc1.[177Lu+3] (stereo partly drawn),U-87 MG tumour model,,"host not given, tumour","4 h, tumour-bearing",,tracer uptake,19.4 %ID/g
N#C[C@@H]1CCCN1C(=O)CNC(=O)c1ccnc2ccc(OCCCN3CCN(C(=O)CCc4ccc5c(c4)CN4CCN6CC(=O)[O][68Ga-]([O]C(=O)C4)([O]5)[O]c4ccc(CCC(=O)N5CCN(CCCOc7ccc8nccc(C(=O)NCC(=O)N9CCC[C@H]9C#N)c8c7)CC5)cc4C6)CC3)cc12,U-87 MG tumour model,,"host not given, bone","1 h, tumour-bearing",,tracer uptake,4.12 %ID/g

# For quick reference, copied from above:
Compound,tested on,assay,system,setting,how to read,endpoint,result
N#C[C@@H]1CC(F)(F)CN1C(=O)CNC(=O)c1ccnc2c(NC(=O)CCOCCOCCOCCOCCOCCOCCNC(=O)[C@H](CCCCNC(=O)CN3CCN(CC(=O)[O-])CCN(CC(=O)[O-])CCN(CC(=O)[O-])CC3)NC(=O)CCCc3ccc(I)cc3)cccc12.[177Lu+3],U-87 MG tumour model,,"host not given, bone","48 h, tumour-bearing",,tracer uptake,0.32 %ID/g
COc1cccc(OC)c1-c1cc(C(=O)NC2(C(=O)O)C3CC4CC(C3)CC2C4)nn1-c1ccc(C(=O)N(C)CCOCCN(C)C(=O)[C@H](CCCCNC(=O)[C@H](CC(C)C)NC(=O)C2OC2C(=O)O)NC(=O)CN2CCN(CC(=O)[O-])CCN(CC(=O)[O-])CCN(CC(=O)[O-])CC2)cc1C(C)C.[177Lu+3] (mixture of isomers),HT-29 tumour model,,"host not given, bone","72 h, tumour-bearing",,tracer uptake,1 %ID/g
